{"data": "Experimental data of several laboratories", "note": "Protocols differ between the studies behind these lines. “And” joins repeats or separate records; there may be more than shown. ± gives the spread as reported.", "chain of UniProt P06873 (whole entry, looked up)": "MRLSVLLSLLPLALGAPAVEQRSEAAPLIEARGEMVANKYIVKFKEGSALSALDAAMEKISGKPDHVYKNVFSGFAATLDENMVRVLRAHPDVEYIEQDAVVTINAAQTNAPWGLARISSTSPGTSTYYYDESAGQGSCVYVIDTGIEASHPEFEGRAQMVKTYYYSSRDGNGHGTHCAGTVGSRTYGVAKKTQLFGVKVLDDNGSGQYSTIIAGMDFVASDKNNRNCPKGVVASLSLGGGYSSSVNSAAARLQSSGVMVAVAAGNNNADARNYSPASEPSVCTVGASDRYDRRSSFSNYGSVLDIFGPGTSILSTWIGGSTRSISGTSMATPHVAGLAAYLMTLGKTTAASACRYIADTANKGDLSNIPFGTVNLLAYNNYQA", "chain of UniProt P29466 (whole entry, looked up)": "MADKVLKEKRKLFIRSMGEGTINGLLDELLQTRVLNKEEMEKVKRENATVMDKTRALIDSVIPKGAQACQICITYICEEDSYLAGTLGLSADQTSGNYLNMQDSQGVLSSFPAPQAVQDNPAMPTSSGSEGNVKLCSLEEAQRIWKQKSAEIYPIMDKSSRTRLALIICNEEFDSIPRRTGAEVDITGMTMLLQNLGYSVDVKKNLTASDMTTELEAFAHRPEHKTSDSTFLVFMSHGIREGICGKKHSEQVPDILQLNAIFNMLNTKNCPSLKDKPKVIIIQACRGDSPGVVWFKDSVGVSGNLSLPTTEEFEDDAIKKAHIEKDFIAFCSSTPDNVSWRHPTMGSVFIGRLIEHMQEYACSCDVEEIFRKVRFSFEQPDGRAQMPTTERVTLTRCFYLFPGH", "chain of UniProt P35414 (whole entry, looked up)": "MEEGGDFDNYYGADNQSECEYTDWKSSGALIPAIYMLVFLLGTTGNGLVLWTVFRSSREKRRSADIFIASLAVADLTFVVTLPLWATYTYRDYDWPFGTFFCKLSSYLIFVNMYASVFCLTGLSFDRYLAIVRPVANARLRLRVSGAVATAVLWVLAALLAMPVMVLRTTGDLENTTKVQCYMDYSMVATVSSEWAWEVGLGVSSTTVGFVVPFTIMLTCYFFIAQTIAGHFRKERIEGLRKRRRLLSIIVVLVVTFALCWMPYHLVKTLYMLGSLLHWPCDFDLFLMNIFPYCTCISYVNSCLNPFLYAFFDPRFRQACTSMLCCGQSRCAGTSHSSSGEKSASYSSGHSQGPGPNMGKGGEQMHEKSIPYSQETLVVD", "chain of UniProt Q5VT25 (whole entry, looked up)": "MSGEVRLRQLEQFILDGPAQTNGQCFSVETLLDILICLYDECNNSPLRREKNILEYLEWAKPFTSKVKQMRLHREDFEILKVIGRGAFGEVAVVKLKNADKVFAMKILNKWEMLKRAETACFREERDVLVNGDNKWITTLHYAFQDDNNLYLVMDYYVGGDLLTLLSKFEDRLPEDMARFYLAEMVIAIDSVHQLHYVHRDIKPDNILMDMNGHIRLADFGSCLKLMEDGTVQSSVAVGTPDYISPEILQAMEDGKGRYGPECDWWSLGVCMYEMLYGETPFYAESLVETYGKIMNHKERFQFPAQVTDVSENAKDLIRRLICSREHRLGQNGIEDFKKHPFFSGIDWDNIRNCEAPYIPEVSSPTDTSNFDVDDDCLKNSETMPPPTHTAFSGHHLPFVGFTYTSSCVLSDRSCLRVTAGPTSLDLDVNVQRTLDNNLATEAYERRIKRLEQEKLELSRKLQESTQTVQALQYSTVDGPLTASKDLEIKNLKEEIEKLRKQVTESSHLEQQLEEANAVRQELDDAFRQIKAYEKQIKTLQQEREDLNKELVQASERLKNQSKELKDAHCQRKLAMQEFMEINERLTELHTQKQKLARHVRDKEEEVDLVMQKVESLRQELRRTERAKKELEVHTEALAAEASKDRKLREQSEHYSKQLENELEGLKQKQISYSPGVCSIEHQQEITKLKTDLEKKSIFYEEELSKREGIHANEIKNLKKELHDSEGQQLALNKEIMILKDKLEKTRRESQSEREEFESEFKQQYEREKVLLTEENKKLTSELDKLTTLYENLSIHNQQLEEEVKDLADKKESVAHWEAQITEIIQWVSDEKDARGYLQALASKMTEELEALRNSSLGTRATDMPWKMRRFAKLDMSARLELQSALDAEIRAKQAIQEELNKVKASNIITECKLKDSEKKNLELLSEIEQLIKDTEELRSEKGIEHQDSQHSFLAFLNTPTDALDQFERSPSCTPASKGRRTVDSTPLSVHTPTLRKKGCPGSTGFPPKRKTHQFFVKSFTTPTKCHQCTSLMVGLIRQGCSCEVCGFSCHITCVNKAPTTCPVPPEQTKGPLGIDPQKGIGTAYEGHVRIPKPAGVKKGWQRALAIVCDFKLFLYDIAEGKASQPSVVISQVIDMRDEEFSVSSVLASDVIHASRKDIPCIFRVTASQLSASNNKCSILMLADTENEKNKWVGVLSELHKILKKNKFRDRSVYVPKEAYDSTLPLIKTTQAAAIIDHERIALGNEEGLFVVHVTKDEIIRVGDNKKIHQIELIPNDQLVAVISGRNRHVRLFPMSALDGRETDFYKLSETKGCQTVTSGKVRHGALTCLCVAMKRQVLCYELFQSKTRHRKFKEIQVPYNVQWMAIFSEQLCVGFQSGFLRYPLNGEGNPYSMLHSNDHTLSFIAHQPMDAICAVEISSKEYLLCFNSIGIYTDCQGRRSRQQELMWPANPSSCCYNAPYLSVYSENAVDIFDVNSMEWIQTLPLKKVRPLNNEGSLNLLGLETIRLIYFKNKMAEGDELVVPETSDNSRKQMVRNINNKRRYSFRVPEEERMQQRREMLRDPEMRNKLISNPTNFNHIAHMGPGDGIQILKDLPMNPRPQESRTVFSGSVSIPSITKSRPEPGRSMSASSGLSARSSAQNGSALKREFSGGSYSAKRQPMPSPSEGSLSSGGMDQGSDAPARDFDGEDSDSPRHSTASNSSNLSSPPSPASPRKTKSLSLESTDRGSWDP", "chain of UniProt P08684 (whole entry, looked up)": "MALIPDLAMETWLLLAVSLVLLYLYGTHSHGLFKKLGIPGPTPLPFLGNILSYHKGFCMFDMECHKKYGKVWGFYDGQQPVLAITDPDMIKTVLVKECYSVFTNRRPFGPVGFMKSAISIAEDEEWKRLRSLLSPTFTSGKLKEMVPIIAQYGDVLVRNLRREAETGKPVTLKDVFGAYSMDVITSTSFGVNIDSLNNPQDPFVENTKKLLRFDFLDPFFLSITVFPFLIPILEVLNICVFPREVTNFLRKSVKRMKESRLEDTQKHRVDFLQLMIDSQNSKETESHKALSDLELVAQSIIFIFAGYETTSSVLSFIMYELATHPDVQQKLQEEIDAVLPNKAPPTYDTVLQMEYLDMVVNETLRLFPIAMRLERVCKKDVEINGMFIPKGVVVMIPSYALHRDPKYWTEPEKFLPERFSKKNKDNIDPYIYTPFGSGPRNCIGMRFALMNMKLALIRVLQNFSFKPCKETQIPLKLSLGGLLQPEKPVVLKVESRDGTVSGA", "chain of UniProt O95347 (whole entry, looked up)": "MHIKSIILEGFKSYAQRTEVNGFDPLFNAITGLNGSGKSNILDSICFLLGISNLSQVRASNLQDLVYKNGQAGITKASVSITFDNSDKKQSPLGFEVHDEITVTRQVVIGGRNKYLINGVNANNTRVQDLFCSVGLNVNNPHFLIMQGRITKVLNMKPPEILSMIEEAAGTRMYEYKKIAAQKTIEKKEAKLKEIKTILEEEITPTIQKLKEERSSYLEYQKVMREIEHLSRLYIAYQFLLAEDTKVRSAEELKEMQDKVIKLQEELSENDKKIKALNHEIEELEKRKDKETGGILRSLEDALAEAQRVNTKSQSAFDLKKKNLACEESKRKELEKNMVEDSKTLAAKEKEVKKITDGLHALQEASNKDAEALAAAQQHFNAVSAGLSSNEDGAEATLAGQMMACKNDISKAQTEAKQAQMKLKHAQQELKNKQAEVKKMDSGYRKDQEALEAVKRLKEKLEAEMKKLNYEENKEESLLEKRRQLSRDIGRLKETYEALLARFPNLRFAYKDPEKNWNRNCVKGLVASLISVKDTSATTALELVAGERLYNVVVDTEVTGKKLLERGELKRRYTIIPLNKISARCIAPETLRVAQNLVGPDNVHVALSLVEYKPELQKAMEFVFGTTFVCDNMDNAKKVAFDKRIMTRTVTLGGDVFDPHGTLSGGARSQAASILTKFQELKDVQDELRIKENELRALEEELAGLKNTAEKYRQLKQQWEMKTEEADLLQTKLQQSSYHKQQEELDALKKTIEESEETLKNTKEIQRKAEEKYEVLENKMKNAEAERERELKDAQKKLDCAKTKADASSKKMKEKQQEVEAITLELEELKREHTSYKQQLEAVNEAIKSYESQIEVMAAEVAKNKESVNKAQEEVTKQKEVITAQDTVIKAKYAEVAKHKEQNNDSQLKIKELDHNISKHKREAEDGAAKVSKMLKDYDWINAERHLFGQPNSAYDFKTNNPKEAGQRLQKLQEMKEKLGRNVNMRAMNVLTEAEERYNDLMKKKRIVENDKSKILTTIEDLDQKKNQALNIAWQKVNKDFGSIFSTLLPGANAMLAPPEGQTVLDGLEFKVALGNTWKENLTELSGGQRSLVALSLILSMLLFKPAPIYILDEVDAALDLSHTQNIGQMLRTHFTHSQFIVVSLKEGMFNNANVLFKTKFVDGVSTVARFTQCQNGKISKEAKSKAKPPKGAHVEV"}
{"Structure (SMILES)": "CC[C@H](C)[C@H](NC(=O)[C@H](Cc1ccccc1)NC(=O)[C@H](CCC(=O)O)NC(=O)[C@H](CCCNC(=N)N)NC(=O)[C@H](C)NC(=O)[C@H](C)NC(=O)[C@H](CCC(N)=O)NC(=O)[C@H](CCC(=O)O)NC(=O)[C@H](CCC(=O)O)NC(=O)[C@H](CC(C)C)NC(=O)[C@H](Cc1ccc(O)cc1)NC(=O)[C@H](CO)NC(=O)[C@H](CO)NC(=O)[C@@H](NC(=O)[C@H](CC(=O)O)NC(=O)[C@H](CO)NC(=O)[C@@H](NC(=O)[C@H](Cc1ccccc1)NC(=O)[C@@H](NC(=O)CNC(=O)[C@H](CCC(=O)O)NC(=O)[C@H](C)NC(=O)CCc1c[nH]cn1)[C@@H](C)O)[C@@H](C)O)C(C)C)C(=O)N[C@@H](C)C(=O)N[C@@H](Cc1c[nH]c2ccccc12)C(=O)N[C@@H](CC(C)C)C(=O)N[C@H](C(=O)N[C@@H](CCCNC(=N)N)C(=O)NCC(=O)N[C@@H](CCCNC(=N)N)C(=O)N[C@@H](CCCCNC(=O)COCCOCCNC(=O)COCCOCCNC(=O)CC[C@H](NC(=O)CCCCCCCCCCCCCCCCC(=O)O)C(=O)O)C(=O)NCC(=O)NCC(=O)N[C@@H](CO)C(=O)N[C@@H](CCCCNc1c(NCCCCCN(O)C(=O)CCC(=O)NCCCCCN(O)C(=O)CCC(=O)NCCCCCN(O)C(C)=O)c(=O)c1=O)C(=O)O)C(C)C [zirconium-89 labelled]", "system": "rat, duodenum", "conditions": "iv, 3 nmol/kg, 4 h, ex vivo", "endpoint": "tissue uptake", "value": "0.29 %ID/g"}
{"Structure (SMILES)": "Cc1cc(C(=O)NC(C)(C)COc2cccc3c2C(N)=NS(=O)(=O)N3)cc(C)n1", "target or system": "Salmonella typhimurium", "assay": "Ames test, initial", "system": "TA98", "conditions": "150 µg/plate, added: rat liver S9", "how to read": "relative to: solvent control", "endpoint": "revertant ratio", "value": 1.2}
{"Structure (SMILES)": "Cc1ncc2n1-c1ccc(Cl)cc1C(c1ccccc1F)=NC2", "target or system": "Cytochrome P450 3A4 (CYP3A4, Homo sapiens, UniProt P08684)", "system": "human, plasma", "conditions": "oral, 2 mg, day 1, alone, arithmetic mean", "endpoint": "AUC(0-inf)", "value": "0.0221 µg·h/mL"}
{"Structure (SMILES)": "CC(=O)N1CCC(C(=O)N2CCN3C(=O)c4cc(-c5ccccc5)ccc4NC(=O)C3C2)CC1 (stereo not shown)", "target or system": "Salmonella typhimurium", "system": "TA98", "conditions": "50 µg/plate", "how to read": "relative to: vehicle", "endpoint": "fold increase in revertants", "value": 0.9}
{"Structure (SMILES)": "CC[C@H](C)[C@@H]1NC(=O)[C@@H]2CCCN2C(=O)[C@H](CC(C)C)NC(=O)[C@H](CC(C)C)NC(=O)CNC(=O)[C@@H](NC(=O)[C@@H](NC(=O)[C@H](CC(=O)O)NC(=O)CNC(=O)[C@@H](NC(=O)[C@H](C)NC(=O)CNC(=O)[C@H](CCCCN)NC(=O)[C@H](CC(C)C)NC(=O)[C@H](CC(C)C)NC(=O)[C@H](CCCCN)NC(=O)CNC(=O)[C@@H](NC(=O)[C@@H](N)CC(C)C)C(C)C)C(C)C)C(C)C)CSSC[C@@H](C(=O)O)NC1=O", "assay": "RNA-seq, measured: Adrb2", "system": "mouse, traumatic brain injury model, frontal cortex and hippocampus", "conditions": "dose not given", "how to read": "relative to: TBI alone", "endpoint": "log2 fold change", "value": -1.83}
{"Structure (SMILES)": "COC(=O)[C@@H](NC(=O)c1nn(Cc2ccc(F)cc2)c2ccccc12)C(C)(C)C", "target or system": "central CB1 receptor", "system": "mouse", "conditions": "intraperitoneal", "endpoint": "dose producing catalepsy", "value": "0.1 mg/kg"}
{"Structure (SMILES)": "[Cl-].[Cl-].[Pt+2].[Ru+2].c1ccc(-c2nc3cc4ccccc4cc3nc2-c2ccccn2)nc1.c1cnc2c(c1)ccc1cccnc12.c1cnc2c(c1)ccc1cccnc12", "target or system": "Danio rerio", "system": "embryos", "conditions": "45 µM, 12 h", "endpoint": "survival rate", "value": "93.3 ± 4.4%"}
{"Structure (SMILES)": "COc1ccc(N2C(=O)N(c3c(C)cccc3Cl)Cc3cnc(Nc4ccc(C5CCN(C)CC5)cc4OC)nc32)nc1", "target or system": "CDC42BPA (Homo sapiens, UniProt Q5VT25)", "assay": "kinase activity, inhibitor", "conditions": "0.5 µM, kinase MRCK-ALPHA", "endpoint": "inhibition", "value": "5%"}
{"Structure (SMILES)": "CC[C@H](C)[C@H](NC(=O)[C@H](CCCNC(=N)N)NC(=O)[C@H](Cc1c[nH]c2ccccc12)NC(=O)[C@H](CCCNC(=N)N)NC(=O)[C@H](Cc1c[nH]c2ccccc12)NC(=O)[C@H](Cc1c[nH]c2ccccc12)NC(=O)[C@H](Cc1c[nH]c2ccccc12)NC(=O)[C@H](CCCNC(=N)N)NC(=O)[C@H](Cc1c[nH]c2ccccc12)NC(=O)[C@H](CCCNC(=N)N)NC(=O)CN)C(N)=O", "target or system": "PK-15", "endpoint": "LC50", "value": "92.3 µM"}
{"Structure (SMILES)": "O=C(O)C[C@H](NC(=O)[C@H](CC(=O)O)NC(=O)[C@H](CC(=O)O)NC(=O)[C@H](CC(=O)O)NC(=O)[C@H](CC(=O)O)NC(=O)[C@H](CC(=O)O)NC(=O)[C@H](CC(=O)O)NC(=O)[C@H](CC(=O)O)NC(=O)[C@H](CC(=O)O)NC(=O)[C@H](CC(=O)O)NC(=O)[C@H](CC(=O)O)NC(=O)[C@H](CCCCNC(=O)c1ccc(C(=O)NCCOCCOB2BBBBBB3BBBB3B2)cc1)NC(=O)CN1CCN(CC(=O)O)CCN(CC(=O)O)CCN(CC(=O)O)CC1)C(=O)O [gallium-67 labelled]", "assay": "gamma counting", "system": "ddY mouse, male, 6 weeks old, brain", "conditions": "intravenous, 37 kBq, 10 min", "endpoint": "tissue uptake", "value": "0.11 %ID/g"}
{"Structure (SMILES)": "CN(C(=O)n1cnc(-c2ccc[n+]([O-])c2)c1)C1CCCCC1", "target or system": "Apelin receptor (APLNR, Homo sapiens, UniProt P35414)", "assay": "radioligand binding", "conditions": "10 µM", "endpoint": "inhibition", "value": "16%"}
{"Structure (SMILES)": "C[C@@H](O)[C@@H](CO)NC(=O)[C@@H](CCCNC(=N)N)NC(=O)[C@@H]1CCCN1C(=O)[C@@H]1CSSC[C@H](NC(=O)[C@H](Cc2ccccc2)NC(=O)CN2CCN(CC(=O)O)CCN(CC(=O)O)CCN(CC(=O)O)CC2)C(=O)N[C@@H](Cc2ccc(O)cc2)C(=O)N[C@@H](Cc2ccccc2)C(=O)N[C@@H](CCC(N)=O)C(=O)N[C@@H](CC(N)=O)C(=O)N1 [gallium-68 labelled]", "system": "Wistar rat, healthy, sublingual gland", "conditions": "intravenous, 8 MBq, 30 min, mean", "endpoint": "tissue uptake", "value": "0.55 %ID/g"}
{"Structure (SMILES)": "C[C@H]1CN(c2n[nH]c3nc(N[C@H]4CC[C@H](NS(=O)(=O)CCC(F)(F)F)CC4)ncc23)CCO1", "target or system": "Structural maintenance of chromosomes protein 2 (Homo sapiens, UniProt O95347)", "assay": "Kinobeads competition, measured: SMC2", "conditions": "20 µM, unit not given", "how to read": "relative to: vehicle", "endpoint": "remaining binding", "value": 1.23}
{"Structure (SMILES)": "CC1(C)[C@H](C=C(Cl)Cl)[C@H]1C(=O)OCc1cccc(Oc2ccccc2)c1", "target or system": "human cytosolic CES1", "assay": "IVIVE from expressed enzymes", "system": "human, 5 years old, expressed human CES1", "conditions": "0.1 µM", "how to read": "relative to: total hepatic CLint in vivo", "endpoint": "relative enzyme contribution", "value": "32.7%"}
{"Structure (SMILES)": "CC(C)C[C@H](NC(=O)[C@H](C)NC(=O)[C@@H](NC(=O)[C@H](CCCNC(=N)N)NC(=O)[C@H](CC(C)C)NC(=O)[C@H](Cc1c[nH]c2ccccc12)NC(=O)[C@@H]1CCCN1C(=O)[C@@H](N)CCCCN)C(C)C)C(=O)N[C@@H](CS)C(=O)N1CCC[C@H]1C(=O)NCC(=O)O", "target or system": "Vero", "assay": "WST-1", "conditions": "64 µM, 24 h", "endpoint": "viability", "value": "106% and 109%"}
{"Structure (SMILES)": "CC1(C)C(C=C(Cl)Cl)C1C(=O)OC(C#N)c1ccc(F)c(Oc2ccccc2)c1 (stereo not shown)", "target or system": "human cytosolic CES1", "assay": "IVIVE from expressed enzymes", "system": "human, 5 years old, expressed human CES1", "conditions": "0.1 µM", "how to read": "relative to: total hepatic CLint in vivo", "endpoint": "relative enzyme contribution", "value": "37.4%"}
{"Structure (SMILES)": "Nc1ncnc2c([C@@H]3N[C@H](CO)[C@@H](O)[C@H]3O)c[nH]c12", "target or system": "HeLa", "conditions": "1.6 µM", "endpoint": "cell number", "value": "5010 and 5620"}
{"Structure (SMILES)": "COc1cc(Nc2ncc(F)c(Nc3ccc4c(n3)NC(=O)C(C)(C)O4)n2)cc(OC)c1OC", "target or system": "Caspase-1 (CASP1, Homo sapiens, UniProt P29466)", "endpoint": "IC50", "value": "> 10 µM"}
{"Structure (SMILES)": "C=C(C)[C@@H]1CCC(C)=C[C@H]1c1c(O)cc(CCCCC)cc1O", "system": "human", "conditions": "750 mg, trial 17075, added: fluconazole 400 mg", "endpoint": "subjects with Death", "value": "0%"}
{"Structure (SMILES)": "Cc1cc(C(C)(C)c2ccc(O)c(C)c2)ccc1O", "target or system": "HepG2 spheroids, dissociated", "assay": "annexin V-FITC/PI flow cytometry", "conditions": "0.1 µM, 24 h", "endpoint": "early apoptotic cells", "value": "12.5 ± 2.1%"}
{"Structure (SMILES)": "COc1cc2c(Oc3ccc4[nH]c(C)cc4c3F)ccnc2cc1OCC1(N)CC1", "system": "paediatric recurrent refractory sarcoma", "conditions": "10 mg", "endpoint": "grade 1 or 2 Rash", "value": "0%"}
{"Structure (SMILES)": "CCCC[C@H](NC(C)=O)C(=O)N[C@@H](CO)C(=O)N[C@H](C(=O)N1CCC[C@H]1C(=O)N[C@@H](C)C(=O)N[C@@H](CCCNC(=N)N)C(=O)N[C@@H](CCCNC(=N)N)C(=O)N[C@@H](CCCNC(=N)N)C(=O)N[C@@H](CC(C)C)C(=O)N[C@@H](CCCC)C(=O)N[C@@H](CCCNC(=N)N)C(=O)N[C@@H](CC(=O)O)C(=O)N[C@@H](Cc1ccccc1)C(=O)N[C@@H](CCCCN)C(=O)N[C@@H](CCCNC(=N)N)C(=O)N[C@@H](CC(C)C)C(=O)N[C@@H](CCC(N)=O)C(N)=O)[C@@H](C)O", "target or system": "Proteinase K (PROK, Engyodontium album, UniProt P06873)", "assay": "proteolytic stability, LC-MS", "conditions": "25 µM, 20.5 min, pH 7.4", "endpoint": "remaining intact peptide", "value": "41.7%"}
{"Structure (SMILES)": "COc1cccc(-c2n[nH]c(SCc3ccccn3)n2)c1OC", "target or system": "Salmonella typhimurium", "assay": "Ames test, plate incorporation", "system": "TA1537", "conditions": "0.50 mg/plate, with rat liver S9", "endpoint": "revertant colonies per plate", "value": 14}
{"Structure (SMILES)": "CO[C@H]1C[C@@H]2CC[C@@H](C)[C@@](O)(O2)C(=O)C(=O)N2CCCC[C@H]2C(=O)O[C@H]([C@H](C)C[C@@H]2CC[C@@H](OC(=O)NCCOCCOCCOCCOCCOCCOCCOCCOCCC(=O)N3CCc4cc(Cn5nc(-c6ccc7oc(N)nc7c6)c6c(N)ncnc65)ccc4C3)[C@H](OC)C2)C[C@@H](O)[C@H](C)/C=C(\\C)[C@@H](O)[C@@H](OC)C(=O)[C@H](C)C[C@H](C)/C=C/C=C/C=C/1C", "system": "patients with advanced solid tumours", "conditions": "intravenous, 10 mg weekly, any grade", "endpoint": "dyspnoea incidence", "value": "37.5%"}
{"Structure (SMILES)": "OCc1ncc2n1-c1ccc(Cl)cc1C(c1ccccc1F)=NC2", "target or system": "CYP3A4 (human)", "system": "human, plasma", "conditions": "oral, 2 mg midazolam, Day 14, added: encorafenib at steady state", "how to read": "relative to: 1-hydroxymidazolam over midazolam", "endpoint": "metabolite to parent Cmax ratio", "value": 22.2}
{"Structure (SMILES)": "O=c1ccc2ccccc2o1", "target or system": "NHEK", "assay": "cell cycle arrest", "conditions": "concentration not given, 1 h", "endpoint": "chance response", "value": "1.05%"}
{"Structure (SMILES)": "CC(c1ccccc1)(c1ccc(O)cc1)c1ccc(O)cc1", "target or system": "HepG2 spheroids, dissociated", "assay": "annexin V-FITC/PI flow cytometry", "conditions": "10 µM, 96 h", "endpoint": "early apoptotic cells", "value": "7.47 ± 0.94%"}
{"Structure (SMILES)": "CC(C)[C@@H]1NC(=O)[C@H](Cc2ccccc2)NC(=O)[C@@H]2NC(=O)[C@H](Cc3ccccc3)NC(=O)[C@@H]3CCCN3C(=O)CNC(=O)[C@H](Cc3ccccc3)NC(=O)[C@@H]3CNCCCC[C@@H](C(=O)O)NC(=O)[C@@H]4NC(=O)[C@H](CC(N)=O)NC(=O)CNC(=O)[C@H]([C@@H](O)C(=O)O)NC(=O)[C@H](CSC[C@@H](NC(=O)[C@H](CCC(N)=O)NC(=O)[C@H](CCCCNC(=O)c5ccc(NN)nc5)NC(=O)[C@@H](N)CS[C@H]4C)C(=O)N[C@@H](CS[C@H]2C)C(=O)N3)NC1=O [technetium-99m labelled]", "system": "rat, saline control, blood", "conditions": "intravenous, 2 h after tracer, tracer 24 h after reperfusion", "endpoint": "tissue uptake", "value": "0.12 ± 0.03 %ID/g"}
